Experimental data from different studies.
Lines come from different studies, so protocols differ.

Compound | test | system | setting | endpoint | value
C=CC(=O)Nc1cc(Nc2ncc(C(=O)OC(C)C)c(-c3cn(C)c4ccccc34)n2)c(OC)cc1N(C)CCN(C)C | – | healthy human, urine | oral, 20 mg single dose, arithmetic mean | fraction of dose excreted | 0.93%
CNC(=O)c1ccc(-c2cnc3ncc(Cc4ccc5ncccc5c4)n3n2)cc1F | ultrafiltration | human normal hepatic function, plasma | oral, 200 mg, 3 h post-dose, mean | fraction unbound | 0.0297
CC(C)(Sc1ccncc1-c1ccc(C#N)c2ccccc12)C(=O)O | – | human, urine | oral, 5 mg, with: febuxostat 20 mg | fraction excreted in urine (0-24 h) | 1.39%
Cn1cc(-c2cn3nccc3c(-c3cnn([C@]4(CC#N)C[C@@H](C#N)C4)c3)n2)cn1 | – | healthy humans, urine | oral, 200 mg twice daily, day 10, dosing interval | fraction excreted unchanged in urine | 1.3%
NC[C@@]1(CC(=O)O)[C@@H]2CC[C@H]3C[C@@H]2[C@@H]1C3 | – | human, mild renal impairment, urine | oral, 20 mg single dose, 0-72 h | fraction excreted in urine | 72.7%
Cc1cc(-c2nccc3c2ccn3CC(=O)Nc2ccc(-c3cnccn3)cn2)ccn1 | – | human, urine | oral, 15 mg once daily, day 1, geometric mean | fraction excreted in urine (fe) | 1.26%
CC(C)n1c(C2CCNCC2)nc2c([N+](=O)[O-])c(Br)c(Br)cc21 | – | human, urine | oral, 75 mg, median, single dose | fraction excreted in urine | 0.01
COc1cc(C(=O)NC2CCN(C)CC2)c(F)cc1Nc1ncc(C(F)(F)F)c(Oc2cccc3c2C(=O)N(C)C3)n1 | – | human, Taiwanese, urine | oral, 200 mg once daily, multiple dose, steady state, 0-24 h, geometric mean | fraction excreted in urine (fe0-24,ss) | 9.23%
NCCONC(=O)[C@@H]1CC[C@@H]2CN1C(=O)N2OS(=O)(=O)O | – | human male, urine | intravenous infusion, 1 g single dose | fraction excreted in urine (0-8 h) | 78.2%
CC(=O)N(C)[C@H]1CCN(C(=O)c2cnc3c(c2)C[C@](C)(c2ccc(F)cc2)N3)C1 | – | healthy male human, urine | oral, 30 mg once daily, 0-48 h steady state, geometric mean | fraction excreted in urine | 56.5%
Cl.[2H]C([2H])([2H])CC(=O)c1cnc(NC(=O)C2CC2)cc1Nc1cccc(-c2ncn(C([2H])([2H])[2H])n2)c1OC | – | human, urine | oral, 20 mg once daily, fasted, multiple doses, mean incl outlier | fraction excreted unchanged | 1.12%
CC(C)OC(=O)[C@@H](C)N[P@@](=O)(OC[C@H]1O[C@@H](n2ccc(=O)[nH]c2=O)[C@](C)(Cl)[C@@H]1O)Oc1ccccc1 | – | human | – | fraction escaping hepatic clearance | 0.649
CN[C@@H]1COc2c(S(=O)(=O)NC(=O)Nc3c4c(cc5c3CCC5)CCC4)cnn2C1 | – | human, urine | oral, 150 mg, 0-48 h | fraction excreted in urine | 0.162
C[C@@H](Oc1ccc(S(C)(=O)=O)cc1C(=O)N1C[C@@H]2C[C@]2(c2cc(C(F)(F)F)on2)C1)C(F)(F)F | – | elderly humans, urine | oral, 25 mg once daily, 0-24 h, multiple dose, geometric mean | fraction excreted in urine at steady state | 7.1%
O=C(c1nc2n(n1)[C@H](c1ccccc1)C[C@@H]2F)C1CC1 | – | human | 25 mg single dose, mean | fraction excreted in urine 0-72 h | 0.2%

For quick reference, copied from above:
Compound | test | system | setting | endpoint | value
O=C(c1nc2n(n1)[C@H](c1ccccc1)C[C@@H]2F)C1CC1 | – | human | 25 mg single dose, mean | fraction excreted in urine 0-72 h | 0.2%
CC(C)(Sc1ccncc1-c1ccc(C#N)c2ccccc12)C(=O)O | – | human, urine | oral, 5 mg, with: febuxostat 20 mg | fraction excreted in urine (0-24 h) | 1.39%
